Measurements pooled from the literature.
Every numbered part comes from another study and shows a few of its results, in no order. Changes are numbered by the printed parent chain.

Block 1
Target: PABPC1L2, full length, GST fusion (mouse, UniProt A0ABA7IW68)
Method: RNAcompete
Molecule type: RNA
Sample: in vitro
Tested at: 20 nM
Setting: 7-mer, probes averaged, single round
Reference: mean of 7-mers
Reading: higher = stronger binding
Construct (chain): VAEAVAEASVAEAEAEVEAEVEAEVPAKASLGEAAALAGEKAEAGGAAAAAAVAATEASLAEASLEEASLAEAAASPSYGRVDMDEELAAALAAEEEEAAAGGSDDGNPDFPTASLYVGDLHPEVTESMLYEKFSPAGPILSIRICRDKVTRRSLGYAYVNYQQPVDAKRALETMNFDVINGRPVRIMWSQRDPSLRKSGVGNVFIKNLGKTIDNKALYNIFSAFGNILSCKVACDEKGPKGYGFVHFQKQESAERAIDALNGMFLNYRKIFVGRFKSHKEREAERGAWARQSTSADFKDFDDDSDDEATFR
| Oligonucleotide | 7-mer Z-score |
| --- | --- |
| UUUGGAC | -0.179 |
| UUAUGCA | -0.112 |
| ACGGUGU | -0.128 |
| GGCUGUC | -0.0736 |
| UGGCGAA | 0.0732 |
| CUGGUAC | -0.171 |
| GCCCGGG | -0.289 |
| UUUUUAC | -0.012 |
| ACCCCCC | -0.499 |
| GCCAAGG | -0.0554 |
| GGGCAUG | 0.303 |
| ACUUACU | -0.0645 |
| CGUUCAA | -0.193 |
| AUCGAAG | 0.0116 |
| AGUCGUG | -0.275 |
| CGCGCGA | -0.249 |
| GAACGGA | 0.037 |
| CCCAAUC | -0.369 |
| ACGCUUU | -0.255 |
| GAACAGU | -0.00833 |
| UCCGGUG | -0.215 |

Block 2
Target: Histone acetyltransferase KAT6A, both winged helices, GST fusion (KAT6A, Homo sapiens, UniProt Q92794, residues 1-181)
Method: protein binding microarray
Molecule type: double-stranded DNA, one strand shown
Sample: in vitro
Tested at: not given
Setting: 8-mer, flanks averaged, mean of 2 arrays, mostly near background
Reference: not given
Reading: higher = stronger binding
Residues (chain): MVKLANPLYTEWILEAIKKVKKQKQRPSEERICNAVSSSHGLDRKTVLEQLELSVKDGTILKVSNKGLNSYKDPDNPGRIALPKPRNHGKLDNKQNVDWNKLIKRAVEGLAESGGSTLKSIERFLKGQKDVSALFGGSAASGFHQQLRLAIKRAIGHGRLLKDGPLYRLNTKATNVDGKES
| Oligonucleotide | E-score |
| --- | --- |
| GCGGCAGA | 0.29 |
| GAACGATA | -0.0445 |
| GTCCAGAA | 0.0656 |
| CTGACTAA | -0.0113 |
| CTGTGCCC | 0.015 |
| CTTTCGTC | -0.0498 |
| ATCCTGGG | -0.104 |
| AACGGCGT | 0.247 |
| CCTCCACG | 0.0154 |
| CACCCCTC | -0.119 |
| GTTGCAAA | -0.0907 |
| GAAGGTCC | -0.0183 |
| CCCGGCAG | 0.105 |
| CTTCAATC | 0.0156 |
| CTCCACCA | -0.231 |
| AGTGCTAA | 0.0362 |
| CCCCGTCG | 0.212 |
| AAGGTGTG | -0.128 |

Block 3
Target: Interferon regulatory factor 5, full length, phosphomimetic (IRF5, Homo sapiens, UniProt Q13568-2, residues 1-514, K96S/S451D/S453D/S456D/S462D)
Method: protein-binding microarray
Molecule type: double-stranded DNA, one strand shown
Sample: in vitro
Tested at: 250 nM
Setting: 60-bp whole probe
With: salmon DNA 0.4 mg/ml
Reference: random background probes
Reading: higher = stronger binding
Constant ends, left off below: GCCTAGCAC … GTCTTGATTCGCTTGACGCTGCTG
| Oligonucleotide | log fluorescence [z-score] |
| --- | --- |
| GACGGTTTCGGACTGGCGACGTGCTAG | 4.18 |
| TTAGAACTGCGTTTCGATTAGTGCTAG | 6.09 |
| TCAAGTCCCCTCTTCTGACTGTGCTAG | -0.473 |
| TTAGGTATCGGACTTGGTTAGTGCTAG | 1.28 |
| CCATGTTGCAGACTCGAAGGGTGCTAG | -0.374 |
| GACGAACTGAGTTTAGAGACGTGCTAG | -0.135 |
| ATAGGTATCGGACTGGGTTAGTGCTAG | 1.25 |
| GACGGTTCCGGGTATCGGGACGTGCTA | 0.68 |
| TTAGGTTTCCTTCTTCTTTAGTGCTAG | 1.24 |
| ATCATTTTCGTTTTTATTATGTGCTAG | 7.42 |
| TCATGTTGTTTTTTGGTACTGTGCTAG | 1.16 |

Block 4
Target: CCND1, cyclin fold, Cln2 fusion (human)
Method: yeast growth competition, sequencing
Sample: yeast
Setting: weak parent motif
Reference: not given
Reading: higher = stronger binding
Starting sequence: CDKN1B docking peptide (human); PSACRNLFGPVDH; partner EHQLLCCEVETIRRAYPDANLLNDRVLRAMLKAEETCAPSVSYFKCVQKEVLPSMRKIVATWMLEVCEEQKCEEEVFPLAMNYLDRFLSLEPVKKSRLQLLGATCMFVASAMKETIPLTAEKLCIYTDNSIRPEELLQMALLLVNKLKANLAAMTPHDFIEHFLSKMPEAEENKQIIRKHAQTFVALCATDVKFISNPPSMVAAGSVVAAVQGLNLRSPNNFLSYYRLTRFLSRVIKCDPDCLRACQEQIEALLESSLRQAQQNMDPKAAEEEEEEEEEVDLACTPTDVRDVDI
| Variant | normalised enrichment score |
| --- | --- |
| PSACRNLDGPVDH [F8D] | 0.0308 |
| PNACRNLFGPVDH [S2N] | 0.687 |
| PSACRNLVGPVDH [F8V] | -0.582 |
| PSACRNLFGPIDH [V11I] | 0.823 |
| PSACRNLFGIVDH [P10I] | 0.406 |
| PSACRNLFGPVDA [H13A] | 0.784 |
| CSACRNLFGPVDH [P1C] | 0.317 |
| PSACRNLFGPVDK [H13K] | 1.1 |
| PSACRNLFGPYDH [V11Y] | 0.666 |
| NSACRNLFGPVDH [P1N] | 0.934 |
| PSACRNLFQPVDH [G9Q] | 0.602 |
| PSACRNLFPPVDH [G9P] | 0.639 |
| PSAPRNLFGPVDH [C4P] | 0.0362 |
| PSACNNLFGPVDH [R5N] | 0.791 |
| PWACRNLFGPVDH [S2W] | -0.142 |
| PSACRSLFGPVDH [N6S] | 0.105 |

Block 5
Target: RNA binding protein fox-1 homolog 2, RRM domain, GST-SBP tag (RBFOX2, Homo sapiens, UniProt O43251-10, residues 100-194)
Method: RNA Bind-n-Seq
Molecule type: RNA
Sample: in vitro
Tested at: 365 nM
Setting: natural RNA segment, single round, ends assumed
Reference: no-protein control
Reading: higher = stronger binding
Constant ends, left off below: GGGAGUUCUACAGUCCGACGAUC … UGGAAUUCUCGGGUGCCAA
Construct (chain): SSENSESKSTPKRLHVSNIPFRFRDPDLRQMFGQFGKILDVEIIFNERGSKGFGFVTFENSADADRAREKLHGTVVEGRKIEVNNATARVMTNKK
| Oligonucleotide | RBNS enrichment (R) |
| --- | --- |
| UUCUGAUUGCCCAGGAGCAGUCAGUAGUGAGGAUACUGAGAAAACUUCCUUCCCAGAGAAAAUGGAUCCUCUAUGUGGGAUUGUAGGAAAGUGACUGGGUGUGCCAAAAA | 0.835 |
| GGACACUGGCCCCUCCACCCUCCCUCCCCUCCCGGCUCCCCGGCCAGAGGGAGAGCUUGGUCUCUGGACCUGCCUUAGGAAGGAGAGGGAGGGCAGGAAGGAAAAGAAAG | 0.162 |
| GUGCUCAGCCCUGCCCAUGGCUGUGCAGCUCCCUCCGUGCCUCAGAUCUGCUGUAGCCAGUGCAGACCUCACUGUCGUGUCCAUGCCACCCCCGGCAUGGCUCCAGGUGG | 0.378 |
| GUUUUACAUUUAAAUUCAGGCAGUGUUAAUAUGCCAAGGUAGGGAAUGUGCCUUUUUCAGAGUUGGCCAGGAGCUCCUGGCUGGGACACGGAGAGGCAGGUGUGGCGUAA | 0.361 |
| CCCCACCAACACCAGGAAUUUAGACCUUUUCCCUGCACCACUCUCUUCAUCCUGGGGGCUCUGUUACACUAAUUUGAAUAAACUCUCCCCUUUCUUUGCAACUUCCCAGC | 1.41 |
| CUAGAGGUGUGGGGGCGAUUCUGCUAGCCUCCUGAGGGGGAGGUGUGGGGAGGGGGACCCUCUGUGGUCCCCGUGGAUCUCCUGAGAAGAUAGUCACUGGCAGAGCUCUG | 0.592 |
| CCACUGCAAUCACUGUGCAUAUGUCUUUUCUUAGCAAAAGGAUUUUAAAACUUGAGCCCUGGACCUUUUGUCCUAUGUGUGUGGAUUCCAGGGCAACUCUAGCAUCAGAG | 6.1 |
| UCCUUUGUAUCAUAGCAAAGGAAAUGUUUAAAAAAAUCAACUGUAAUAAAGUAAUUUUAGUACACAGUGUCUGUCCAGUUUUUUUAAGCAAUUUUAUUCCCAUGAAGAUA | 0.557 |

Some of these lines once more (block 4):
| Variant | normalised enrichment score |
| --- | --- |
| PSACRNLFGPIDH [V11I] | 0.823 |
| PSACRNLFGIVDH [P10I] | 0.406 |
| PSACRNLFGPVDA [H13A] | 0.784 |
| CSACRNLFGPVDH [P1C] | 0.317 |
| PSACRNLFGPVDK [H13K] | 1.1 |
| PSACRNLFGPYDH [V11Y] | 0.666 |
